Published values gathered from unrelated publications.
Every numbered part comes from another study and shows a few of its results, in no order. Substitutions count along the parent as printed.

Block 1
Target: ABI1, truncated, D143A, DHFR fusion (Arabidopsis thaliana)
Method: DHFR PCA, deep sequencing
Medium: yeast
Notes: methotrexate growth selection, single substitutions
Together with: (+)-ABA 58 µM
Baseline: wild-type fitted maximum
Reading: higher = stronger binding
Starting sequence: PYL1, truncated, DHFR fusion (Arabidopsis thaliana); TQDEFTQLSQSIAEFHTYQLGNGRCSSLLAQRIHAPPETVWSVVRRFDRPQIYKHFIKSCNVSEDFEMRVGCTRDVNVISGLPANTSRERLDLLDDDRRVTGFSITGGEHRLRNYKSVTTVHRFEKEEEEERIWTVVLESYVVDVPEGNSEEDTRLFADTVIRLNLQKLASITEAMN; partner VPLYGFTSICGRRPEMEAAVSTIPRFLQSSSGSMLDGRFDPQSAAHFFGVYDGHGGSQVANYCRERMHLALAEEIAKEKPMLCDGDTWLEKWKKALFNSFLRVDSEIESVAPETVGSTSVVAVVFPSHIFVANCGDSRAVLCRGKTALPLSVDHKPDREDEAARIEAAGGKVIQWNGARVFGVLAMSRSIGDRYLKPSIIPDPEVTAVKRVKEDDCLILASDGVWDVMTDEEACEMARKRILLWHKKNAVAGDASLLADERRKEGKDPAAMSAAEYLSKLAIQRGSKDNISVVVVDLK
Change	relative binding score [%]
I57W	3.69
R32N	66.5
G107T	37.9
T86D	78.1
L112W	-0.0873
K168F	45.9
T6V	92.5
V145G	1.06
L82A	30.7
A170V	41
R163T	74.5
E89Y	-12.2
V78L	89.3
V70R	61.2
T173H	39.4

Block 2
Target: Histone acetyltransferase KAT6A, winged helix 1, GST fusion (KAT6A, Homo sapiens, UniProt Q92794, residues 1-85)
Method: protein binding microarray
Form: double-stranded DNA, one strand shown
Medium: in vitro
Tested at: not given
Notes: 8-mer, flanks averaged, mean of 2 arrays, mostly near background
Baseline: not given
Reading: higher = stronger binding
Residues (chain): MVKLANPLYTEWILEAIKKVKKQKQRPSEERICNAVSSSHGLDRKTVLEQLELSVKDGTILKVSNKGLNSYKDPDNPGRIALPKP
Oligonucleotide	E-score
AAATGGCA	-0.291
GGGCCGAC	0.249
GTAGTGTA	-0.0699
GACAATAA	-0.0709
CTGCTTTA	-0.0715
AGGATTCA	-0.136
CAGGGCCA	-0.132
AGGATTGG	-0.2
TAAGCGTA	0.0505
AACACCGC	0.244
AATTACTA	-0.072
AATTGTAT	-0.163
AATCAATG	0.0216
CTGTATTC	-0.187
CGTTACCA	-0.203
ATGAGGTC	-0.23
ATATGAAA	-0.203
GACGACTC	-0.146
CGAAAACC	0.137

Block 3
Target: Interferon regulatory factor 7, full length, phosphomimetic (IRF7, Homo sapiens, UniProt Q92985, residues 1-503, S101K/S471D/S472D/S475D/S476D/S477D/S483D/S484D/S487D)
Chain of UniProt Q92985 (whole entry, unmodified, looked up): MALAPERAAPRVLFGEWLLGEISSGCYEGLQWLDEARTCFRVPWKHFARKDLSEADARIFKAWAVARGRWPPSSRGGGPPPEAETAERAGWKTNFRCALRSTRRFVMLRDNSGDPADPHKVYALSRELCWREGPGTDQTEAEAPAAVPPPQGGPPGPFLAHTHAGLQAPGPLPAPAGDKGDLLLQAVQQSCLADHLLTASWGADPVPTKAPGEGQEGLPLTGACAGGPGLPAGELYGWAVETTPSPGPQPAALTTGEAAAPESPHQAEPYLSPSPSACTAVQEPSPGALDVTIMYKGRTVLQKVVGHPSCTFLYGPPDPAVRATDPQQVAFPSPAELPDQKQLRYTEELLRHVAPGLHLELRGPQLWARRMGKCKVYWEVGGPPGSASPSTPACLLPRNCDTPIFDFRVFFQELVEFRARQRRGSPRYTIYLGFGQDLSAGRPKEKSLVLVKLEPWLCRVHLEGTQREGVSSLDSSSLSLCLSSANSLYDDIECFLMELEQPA
Method: protein-binding microarray
Form: double-stranded DNA, one strand shown
Medium: in vitro
Tested at: 250 nM
Notes: 60-bp whole probe
Together with: salmon DNA 0.4 mg/ml
Baseline: random background probes
Reading: higher = stronger binding
Constant ends, left off below: GCCTAGCAC … GTCTTGATTCGCTTGACGCTGCTG
Oligonucleotide	log fluorescence
GACGGTTTCGTTATCCTGACGTGCTAG	12.1 z-score
GACGGTTTCGGGTTCGGGACGTGCTAG	10.2 z-score
TCAACTTTCTTTACTTCACTGTGCTAG	0.872 z-score
ATAGATTTCGGGTTTCGATTAGTGCTA	8.21 z-score
GTAGTAATGAATATAATACCGTGCTAG	-0.284 z-score
TTAGGTTTCGGGTTCCGGTTAGTGCTA	12 z-score
GACGATCTCAGTTTCGAGAAGTGCTAG	1.78 z-score
TTTTCATTTTTTTTCATCATGTGCTAG	2.29 z-score
TTAGGTATCGGTTCCGGTTAGTGCTAG	3.96 z-score
TCACCATTTTTTTTCACACTGTGCTAG	0.664 z-score
AGACAGAAGGGAAACAGGTTGGTGCTA	-0.0979 z-score
GACGGTCTCAGACTGGAGACGTGCTAG	-0.455 z-score
TTAGGTTTCTGGACTGGGTTAGTGCTA	0.724 z-score
TATGTTCACTATTTAAGAACGTGCTAG	1.53 z-score
GAAGTTCTTTTTTTCAAGAAGTGCTAG	0.911 z-score
GACGATCTCAATTTCGAGACGTGCTAG	0.56 z-score
TTAGAATTGGGGACTGGATTAGTGCTA	-0.342 z-score
GACGATTTCAGTTCCGCGACGTGCTAG	0.77 z-score
TACGGACTGGACTTTCGGGACGTGCTA	-0.453 z-score
TTAGGTATCTGGTATCGGTTAGTGCTA	1.11 z-score
CAGCGCGCAGCTGCCAGAACGTGCTAG	-1.56 z-score

Block 4
Target: Fragile X messenger ribonucleoprotein 1, C-terminal low-complexity region (Fmr1, Mus musculus, UniProt P35922)
Method: RNA Bind-n-Seq
Form: RNA
Medium: in vitro
Tested at: 200 nM
Notes: whole 134-nt RNA, ends assumed
Together with: 150 mM KCl
Baseline: input library
Reading: higher = stronger binding
Constant ends, left off below: GGGAGUUCUACAGUCCGACGAUC … UGGAAUUCUCGGGUGUCAAGG
Oligonucleotide	log2 enrichment
UAACUUUAGAUGAGGAUCUGAUGGAUAUGGCAGUGGACGUGGAUUUGGGGAUGGCUAUAAUGGGUAUGGAGGAGGACCUGGAGGUGGCAA	0.204
UAACUUUAGAGGAGGAUCUGAUGGAUAUGGGAGUGGACGUGGAUUUGGGGAUGGCUAUAAUGGGUAUGGAGGAGGACCUGGAGGUGGCAA	0.219
GAAGAUUGGCUUAAAAUGGCUACUGUGAUGGGAACAGUGUCUUAGGGAGAUGCAGCUUGGACUUGAGGUAAAUUGAAUACUUUACAACUG	0.0226
UAGUGAUGGUCCUAAAUAGCAUGAGUGUCAGCUGGAGCGCCCGGAUCCAGAUUUUCUUAACCUUUUGCAAGCUCACAGCAAUUCUGAUAA	-0.558
UGGAGAUGACAGAAAUGACUGGUGUGUCGCUGAAACGUGGGGCACUGGUUGUCGAAGAUAAUGACAGUGGAGUCCCAGUUGAAGAGACAA	-2.03
AAGUCCUGUGCUACACAUCGUAUGUACCGAAUCGGGAAAAGGGAAAAGGGAAAAGGAAAGUAUUAUGUUACGCCGUUCGGAUCUGCACUU	-0.564
GCAGGAAGUAAAAACAAAUGGAAAUGCUUCGGAUAGUGGCAGGGGUGGGGGUUGCUAAGGAAAGGGUGGGAUAAAAGUGGGUAAAGAGUU	0.302
CUCAAGUCCUGUGCUACACAUCGUAUGUACCGAAUCGGAGGUGGAAAAAAAGGAAAGUAUUAUGUUACGCCGUUCGGAUCUGCACUUCCA	-0.515
UUGUUUAUUCUGUGUCUUUUGCCUCCUUUCCUACAGAUGUCCGGCAGGAUAAUGCUGCUGGCAGAGCUGGCUCCAGUAGCCUUACACAGG	0.503
AAGUCCUGUGCUACACAUCGUAUGUACCGAAUCGGGGCCCGGGGCCCGGGCCCGGGAAAGUAUUAUGUUACGCCGUUCGGAUCUGCACUU	-1.14
UCAAGUCCUGUGCUACACAUCGUAUGUACCGAAUCGGAAAGGAAAGGGGAAAGGGAAAGUAUUAUGUUACGCCGUUCGGAUCUGCACUUC	-0.471
ACCAUGCAGGUGGGCAUCUUUGGGAAGUGGGGCAAGGGGGGGAUAGGGAGGGGGGUAACACUUUGGGAACAGGUGGUCCCAGGUCGUUUG	0.78
UGCUUCAUCGCCUUGUGCUCCUGCCCCUGGGAGCUGUGGAUCCCAGAUCCAGAUGACAGCCCACCUUGCUGGCAGGAUGCGCCAAUCCCC	-0.332
UGGGAGGUGGAUUUUGUUUAUUUUUUUAGCUCAUUUCCAGGGGUGGGUAUUUUUUUUUAAUAUGUGUCAUGAAUAAAGUUGUUUUUGAAA	0.397

Block 5
Target: RING finger protein unkempt homolog, zinc fingers 1-6, GST-SBP tag (UNK, Homo sapiens, UniProt Q9C0B0, residues 30-357)
Method: RNA Bind-n-Seq
Form: RNA
Medium: in vitro
Tested at: not given
Notes: RNA with constant flanks, human and mouse sites, ends assumed
Baseline: input RNA pool
Reading: higher = stronger binding
Constant ends, left off below: GGGAGUUCUACAGUCCGACGAUC … CAACAGAGGAUUGAGCAUCA
Construct (chain): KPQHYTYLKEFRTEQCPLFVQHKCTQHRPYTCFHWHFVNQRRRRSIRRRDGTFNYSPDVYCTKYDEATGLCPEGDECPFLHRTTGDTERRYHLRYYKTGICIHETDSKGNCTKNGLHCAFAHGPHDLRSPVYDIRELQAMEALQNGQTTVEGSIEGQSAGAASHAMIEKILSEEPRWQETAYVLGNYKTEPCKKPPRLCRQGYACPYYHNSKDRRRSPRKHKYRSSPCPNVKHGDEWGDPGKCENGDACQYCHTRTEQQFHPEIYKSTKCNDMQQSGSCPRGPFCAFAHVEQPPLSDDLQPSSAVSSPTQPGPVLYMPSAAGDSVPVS
Oligonucleotide	bound/input enrichment [ratio]
GAUUCCAUUCGGACAUUAUUAGAUAAUGGAGCUUCAGUAAAUCAGUGUGAUUCAAAUGGGAGAACAUUAUUGGCUAAUGCUGCAUAUAGUGGCAGUCUUGAUGUAGUCAAUUUACUUGUC	0.22
GUUAUGGGUGUGAGAGGUUUGCAAGGAUUUGUGGGAAGUACCUGCCCACAUAUAUGUACAGUAGUAAAUUUCAAAGAACUGGCAGAGCACCACCGAAGCAAGUAUCCUGGAUGUACCCCU	0.619
GGAGACUCCACGGCAAGAAUCUGGAACCUCAGUGAGAACAGCACGAGUGGCCCUACGCAGCUCGUGCUUAGACACUGCAUACGGGAAGGAGGGCAGGACGUGCCCAGUAACAAGGAUGUC	0.087
UGGCGGUUCAGCAACAUGAAGCAGUGGAAUGUCAACUGGGAGAUCAAGAUGGUCACUGUAGAGUUUGCAGAUGAGGUCCGGUUGUCCUUCAUCUGUACCGAAGUAGACUGCAAGGUGGUC	0.261
GGCAUUUUUUCCCAGAAUUUUAUCUUUUAGAUAUGAUUUUUACAGGUUGACCAAAAUCAAGGGGCUUGGUUUCAUUGUAUGAUCUUCAUUUCUCAAUAUUAAGGGUUUCAUCAAGGCCUU	0.227
CGGACCCUGAUCCCACGCUACUUCCGCAGCAUCUUUGAGGGGGGUGCUACGGAGCUGUACUAUGUUCUUAAGCACCCCAAGGAGGCAUUCCACAGCAACUUUGUGUCCCUCGACUGUGAC	0.143
AAGGUUAAAUUGCUCACUGGCAAACGAGUUCAGCUGGCAGAAGAUCUCAAGAAAGUUAGAGAAAUUCAAGAAAAGCUUGAUGCUUUCAUUGAAGCUCUUCACCAGGAGAAGUAGACUGUG	0.291
CGGUCUCUUCCAUCUCCUUCCUCUGCUCACUUGGCUGCUUUAAGUGUUGCAGUUGUUGAGUUAGCAAAAGAACAAGGAAUAACAGAUGAUGACCUCAGAAUCCGCCAGGACAUUGUGGAG	0.108
AAUUUUCAUUUCGCUUGUGUUCAUGGUGUGUGCUCCCAACCCCCUUUCCUCCCCUGACCCCUUAGUCCUUCAUUCCCAGUUUUCCGGAAUGAUACUUUAGGAGGAAUAGAUUGUAAAGAG	1.24
GAUGUGUCUCCAUCUCUGCAUGCUGAGGUUGGCUCCCCACAUUCCACAGAAGUAGAUGACUCCCUUUCAGUGUCUGUUGUGCAAACACCUACCACAUUCCAGGAAACAGAAAUGUCUCCA	0.104
AAGUGGUUGCUGCAGAAAGACAAAGACAGGAGGAAGGAGGUUAAACUGAACGAGCGCAUUAUAGCUACUUCCCAAGGACUACUGAUUCGCUCUGUUCAAGAUUCUGACCAAGGACUCUAC	0.266
